Measured values collected from several papers.
Target: Ephrin type-B receptor 2 (EPHB2, Homo sapiens, UniProt P29323)

`COc1ccc(NC(=O)Nc2ccc3c(c2)C(=O)N(C(C)CO)CC(C)C(CN(C)Cc2ccc4c(c2)OCO4)O3)cc1` (stereo not shown) gave a remaining activity of 102% (kinase activity, KinaseProfiler; 0.03 µM, species human; baseline: control).
`CNC(=O)C[C@H](Cc1ccc(C#N)cc1)NC(=O)c1cc(-c2ccc(CN[C@H](C)c3ccc(C)cc3)o2)ccc1Cl`: “activity vs control” 108% (enzyme activity, inhibitor; 1 µM).
For `CCN1CCN(Cc2ccc(NC(=O)c3ccc(C)c(NC(=O)c4cncc(-c5cccs5)c4)c3)cc2C(F)(F)F)CC1`, the remaining binding was 3.8% (binding, competition with immobilised ligand; 1 µM).
For `C=CC(=O)N1CCc2ccc(-n3c(=O)ccc4cnc5ccc(-c6cnn(C)c6)cc5c43)cc21`, the remaining binding was 100% (KINOMEscan; 1 µM; baseline: DMSO control).
`COc1c(OCCCN2CCOCC2)ccc2c1N=C(NC(=O)c1cnc(N)nc1)N1CCN=C21` gave a remaining activity of 104% (kinase activity, inhibitor; 1 µM; baseline: untreated control).
For `Nc1ncc2c(n1)-c1c([nH]c3ccc(C4=CCOCC4)cc13)CCC2`, the remaining binding was 100% (binding, competition with immobilised ligand; 1 µM).
`C=CC(=O)Nc1cccc(-c2cnc3[nH]cc(C(=O)NC(C)(C)C)c3n2)c1` gave an inhibition of -3% (enzyme activity, inhibitor; 0.1 µM).
`CNC1C[S+]2CC[S+]3CC[S+](C1)[Ru-4]321([N]=C=S)[n]2c3ccc(OC)cc3c3c4c(c5cc(F)c[n+]1c5c32)C(=O)NC4=O` (stereo not shown) gave a remaining binding of 100% (KinomeScan; 0.1 µM; baseline: untreated).
For `COc1cc(Nc2nccc(-c3cnn4nc(OC)ccc34)n2)cc(C(F)(F)F)c1`, the remaining binding was 100% (binding, competition with immobilised ligand; 1 µM).
With `Cc1cccc(O[C@H]2CCC[C@@H](C(C)CNCc3ccncc3)C2)c1` (relative stereo) the inhibition was -34% (kinase activity, kinome panel screening; 10 µM).
For `C[C@H]1CN(C(=O)c2cn(-c3ccnc(N)n3)c3cc(C#CC4(O)CCCCC4)ccc23)CCN1`, the inhibition was -1% (enzyme activity, inhibitor, FRET; 1 µM).
`Cc1cnc2nc1Nc1cccc(c1)COC/C=C/COCc1cc(ccc1OCCN1CCOCC1)N2` — result for “percent of control”: 100% (concentration not given).
`NC(=O)[C@@H](O)C[C@H]1CCc2sc3ncnc(O[C@H]4CC[C@H](N5CCOCC5)CC4)c3c21` has an inhibition of 17% (enzyme activity, inhibitor; 10 µM).
`C=CC(=O)N1Cc2nc(-c3cc(-c4cc(Cl)cnc4Cl)c(F)cc3F)n(-c3ccncn3)c2C1` has an inhibition of 7.8% (cell-free assay; 1 µM).
The remaining binding of `CC(C)=CC1OC(C)(C)C2C=C3C(=O)C(Cl)=CC(O)C3C3C(O)C4OC4C(=O)C132` (stereo not shown) is reported as 92% (cell-free assay, competition with immobilised ligand; 10 µM).
For `CCN1CCN(Cc2ccc(C(=O)Nc3ccc(C)c(NCc4cnc5[nH]ccc5c4OC)c3)cc2C(F)(F)F)CC1`, the remaining binding was 5.3% (binding, competition with immobilised ligand; 1 µM).

A few entries again:
With `Cc1cccc(O[C@H]2CCC[C@@H](C(C)CNCc3ccncc3)C2)c1` (relative stereo) the inhibition was -34% (kinase activity, kinome panel screening; 10 µM).
